Measurements collected from several papers.
Lines come from different studies, so protocols differ. Values joined by “and” are separate records of one study, mostly repeats; a detail may differ. Numbers after ± are the reported error.
gyrB with GyrA: DNA gyrase subunit B, with GyrA (gyrB, Mycobacterium tuberculosis, UniProt P9WG45)
Sequence of UniProt P9WG45 (whole entry, looked up): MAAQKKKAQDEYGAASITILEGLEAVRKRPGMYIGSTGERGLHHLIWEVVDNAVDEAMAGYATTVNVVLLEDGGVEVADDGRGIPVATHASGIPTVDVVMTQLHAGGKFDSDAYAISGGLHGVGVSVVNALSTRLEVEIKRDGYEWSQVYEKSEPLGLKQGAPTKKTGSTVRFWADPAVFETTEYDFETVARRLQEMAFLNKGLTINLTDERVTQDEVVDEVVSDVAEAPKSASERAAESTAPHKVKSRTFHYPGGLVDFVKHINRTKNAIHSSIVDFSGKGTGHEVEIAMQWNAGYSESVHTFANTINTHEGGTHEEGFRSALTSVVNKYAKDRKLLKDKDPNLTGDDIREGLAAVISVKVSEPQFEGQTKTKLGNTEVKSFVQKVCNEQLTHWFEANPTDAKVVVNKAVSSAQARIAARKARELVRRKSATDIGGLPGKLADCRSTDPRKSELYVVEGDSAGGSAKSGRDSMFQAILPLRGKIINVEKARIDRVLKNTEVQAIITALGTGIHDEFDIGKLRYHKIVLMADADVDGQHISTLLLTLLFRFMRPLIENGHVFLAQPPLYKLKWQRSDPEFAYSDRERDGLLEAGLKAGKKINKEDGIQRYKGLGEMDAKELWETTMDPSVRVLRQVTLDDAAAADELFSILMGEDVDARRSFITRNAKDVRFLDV
ARID1B: AT-rich interactive domain-containing protein 1B (ARID1B, Homo sapiens, UniProt Q8NFD5)
Sequence of UniProt Q8NFD5 (whole entry, looked up): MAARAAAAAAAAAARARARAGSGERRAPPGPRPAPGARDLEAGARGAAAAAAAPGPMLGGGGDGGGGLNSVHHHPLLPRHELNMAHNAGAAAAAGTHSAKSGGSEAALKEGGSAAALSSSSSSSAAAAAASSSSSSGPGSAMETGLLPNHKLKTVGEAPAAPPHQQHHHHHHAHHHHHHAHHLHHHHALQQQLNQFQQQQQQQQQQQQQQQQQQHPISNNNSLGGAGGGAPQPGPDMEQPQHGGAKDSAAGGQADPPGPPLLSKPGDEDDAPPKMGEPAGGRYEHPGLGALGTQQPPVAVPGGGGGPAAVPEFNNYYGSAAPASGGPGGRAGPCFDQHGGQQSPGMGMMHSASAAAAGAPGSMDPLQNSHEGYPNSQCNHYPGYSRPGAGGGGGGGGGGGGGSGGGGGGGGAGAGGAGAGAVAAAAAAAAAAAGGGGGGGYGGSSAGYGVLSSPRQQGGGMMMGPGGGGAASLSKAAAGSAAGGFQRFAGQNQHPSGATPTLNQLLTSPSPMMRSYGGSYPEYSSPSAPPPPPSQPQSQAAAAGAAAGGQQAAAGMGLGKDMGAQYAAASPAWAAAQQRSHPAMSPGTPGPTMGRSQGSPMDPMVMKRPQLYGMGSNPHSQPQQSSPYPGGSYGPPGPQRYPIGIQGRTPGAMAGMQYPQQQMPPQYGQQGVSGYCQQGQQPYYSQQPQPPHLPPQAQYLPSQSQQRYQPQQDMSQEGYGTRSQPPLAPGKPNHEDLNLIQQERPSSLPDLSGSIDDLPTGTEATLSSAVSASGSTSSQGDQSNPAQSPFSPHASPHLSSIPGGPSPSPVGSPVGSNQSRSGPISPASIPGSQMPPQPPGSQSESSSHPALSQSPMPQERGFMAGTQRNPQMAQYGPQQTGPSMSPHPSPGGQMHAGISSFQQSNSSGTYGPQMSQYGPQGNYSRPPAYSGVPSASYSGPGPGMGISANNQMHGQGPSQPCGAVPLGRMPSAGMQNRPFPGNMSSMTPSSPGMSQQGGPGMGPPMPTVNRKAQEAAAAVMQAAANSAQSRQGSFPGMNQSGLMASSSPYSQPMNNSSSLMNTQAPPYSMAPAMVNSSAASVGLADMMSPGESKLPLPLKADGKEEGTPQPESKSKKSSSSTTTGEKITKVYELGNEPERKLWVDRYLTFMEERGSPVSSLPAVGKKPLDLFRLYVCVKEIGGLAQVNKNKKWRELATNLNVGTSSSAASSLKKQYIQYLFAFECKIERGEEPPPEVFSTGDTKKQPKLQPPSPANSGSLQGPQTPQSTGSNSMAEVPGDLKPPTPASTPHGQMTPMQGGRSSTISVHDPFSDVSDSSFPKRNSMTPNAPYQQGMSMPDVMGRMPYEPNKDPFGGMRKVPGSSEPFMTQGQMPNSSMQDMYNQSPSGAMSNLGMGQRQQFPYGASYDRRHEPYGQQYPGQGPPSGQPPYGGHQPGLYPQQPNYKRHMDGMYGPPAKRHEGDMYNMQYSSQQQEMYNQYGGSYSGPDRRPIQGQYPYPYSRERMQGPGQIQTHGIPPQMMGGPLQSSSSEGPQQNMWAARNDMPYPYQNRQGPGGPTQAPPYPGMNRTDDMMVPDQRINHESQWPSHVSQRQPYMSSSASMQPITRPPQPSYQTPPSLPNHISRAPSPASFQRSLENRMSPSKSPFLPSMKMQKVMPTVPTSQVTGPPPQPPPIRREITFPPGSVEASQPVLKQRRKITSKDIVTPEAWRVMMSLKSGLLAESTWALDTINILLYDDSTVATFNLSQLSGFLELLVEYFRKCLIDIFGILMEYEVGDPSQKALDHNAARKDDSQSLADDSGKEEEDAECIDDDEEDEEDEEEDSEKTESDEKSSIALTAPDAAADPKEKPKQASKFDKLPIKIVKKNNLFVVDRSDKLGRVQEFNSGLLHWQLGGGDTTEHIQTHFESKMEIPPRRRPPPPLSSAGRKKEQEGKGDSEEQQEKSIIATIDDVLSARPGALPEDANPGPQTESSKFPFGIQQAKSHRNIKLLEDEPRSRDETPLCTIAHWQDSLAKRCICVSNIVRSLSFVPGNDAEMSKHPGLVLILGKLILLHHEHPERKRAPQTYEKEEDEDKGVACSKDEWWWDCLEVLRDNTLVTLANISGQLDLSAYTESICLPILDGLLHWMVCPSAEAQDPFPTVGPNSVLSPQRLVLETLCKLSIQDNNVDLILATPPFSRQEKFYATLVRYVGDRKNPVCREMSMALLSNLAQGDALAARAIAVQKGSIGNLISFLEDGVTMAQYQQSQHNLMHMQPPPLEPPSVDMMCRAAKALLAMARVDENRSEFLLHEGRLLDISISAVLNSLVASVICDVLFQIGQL
HA: Hemagglutinin (HA, Influenza A virus, UniProt P03452)
Sequence of UniProt P03452 (whole entry, looked up): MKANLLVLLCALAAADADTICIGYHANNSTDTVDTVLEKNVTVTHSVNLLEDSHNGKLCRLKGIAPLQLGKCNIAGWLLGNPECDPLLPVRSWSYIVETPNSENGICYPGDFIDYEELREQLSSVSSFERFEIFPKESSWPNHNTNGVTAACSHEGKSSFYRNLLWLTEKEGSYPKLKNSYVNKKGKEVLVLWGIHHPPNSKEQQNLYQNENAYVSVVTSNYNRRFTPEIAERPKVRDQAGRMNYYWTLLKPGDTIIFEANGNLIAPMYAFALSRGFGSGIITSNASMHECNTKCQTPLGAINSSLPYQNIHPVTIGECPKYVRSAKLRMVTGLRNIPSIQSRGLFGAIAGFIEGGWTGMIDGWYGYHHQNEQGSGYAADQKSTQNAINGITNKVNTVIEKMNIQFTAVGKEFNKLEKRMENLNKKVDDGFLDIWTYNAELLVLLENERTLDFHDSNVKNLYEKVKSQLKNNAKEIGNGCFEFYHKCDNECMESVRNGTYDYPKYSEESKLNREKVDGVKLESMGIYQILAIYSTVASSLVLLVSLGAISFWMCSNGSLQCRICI
Sequence of UniProt P55210 (whole entry, looked up): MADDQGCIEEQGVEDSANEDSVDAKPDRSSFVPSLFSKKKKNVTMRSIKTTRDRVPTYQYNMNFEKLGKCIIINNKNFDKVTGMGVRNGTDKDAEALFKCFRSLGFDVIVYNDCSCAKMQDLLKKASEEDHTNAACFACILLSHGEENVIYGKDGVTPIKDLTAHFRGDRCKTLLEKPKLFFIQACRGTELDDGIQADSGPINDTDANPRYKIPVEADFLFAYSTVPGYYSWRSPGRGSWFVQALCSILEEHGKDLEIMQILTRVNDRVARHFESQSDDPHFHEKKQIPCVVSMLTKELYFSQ
Sequence of UniProt Q9TUI8 (whole entry, looked up): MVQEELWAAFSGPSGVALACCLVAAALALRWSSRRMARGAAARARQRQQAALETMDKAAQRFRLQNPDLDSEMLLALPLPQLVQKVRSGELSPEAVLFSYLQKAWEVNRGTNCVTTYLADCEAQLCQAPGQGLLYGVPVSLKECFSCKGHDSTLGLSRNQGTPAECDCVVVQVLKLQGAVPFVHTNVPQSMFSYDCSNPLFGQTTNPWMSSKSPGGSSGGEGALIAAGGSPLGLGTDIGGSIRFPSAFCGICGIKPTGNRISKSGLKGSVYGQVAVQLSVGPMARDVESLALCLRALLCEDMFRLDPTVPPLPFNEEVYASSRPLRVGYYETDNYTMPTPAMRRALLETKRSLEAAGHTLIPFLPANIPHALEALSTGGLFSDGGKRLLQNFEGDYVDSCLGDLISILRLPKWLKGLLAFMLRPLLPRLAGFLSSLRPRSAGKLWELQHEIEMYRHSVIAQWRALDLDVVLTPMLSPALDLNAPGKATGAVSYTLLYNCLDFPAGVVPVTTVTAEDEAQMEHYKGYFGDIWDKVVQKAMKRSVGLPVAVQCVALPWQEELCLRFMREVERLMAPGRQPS

| Compound | target or system | test | test system | conditions | quantity | value |
| --- | --- | --- | --- | --- | --- | --- |
| C[C@@H](N1CN([C@H]2c3ccccc3CSc3ccccc32)n2cc(C(=O)O)c(=O)c(O)c2C1=O)C(F)(F)F | Polymerase acidic protein, endonuclease domain (PA, Influenza A virus, UniProt P15659) | – | influenza A virus A/WSN/33 H1N1 | – | IC50 | 0.039 µM |
| O=C(CCc1c(C(=O)Nc2ccc(Cl)cc2)[nH]c2ccc(Cl)cc12)Nc1ccc(Cl)cc1 | gyrB with GyrA | – | – | – | IC50 | 1.5 µM |
| CC(C)C[C@@H]1NC(=O)CN(C)C(=O)[C@H](Cc2c[nH]c3ccccc23)NC(=O)[C@H](CCC(=O)O)NC(=O)[C@H](Cc2ccccc2)N(C)C(=O)[C@H](Cc2ccccc2)NC(=O)CSC[C@@H](C(N)=O)NC(=O)[C@H](CCCCN)NC(=O)[C@H](C(C)C)NC(=O)[C@H](Cc2ccc(O)cc2)NC(=O)[C@H](Cc2ccc(O)cc2)NC(=O)[C@H](C(C)C)NC(=O)[C@H](C)N(C)C(=O)[C@H](CCCNC(=N)N)NC1=O | ARID1B | binding, TR-FRET competition | – | 1% DMSO | IC50 | > 1 µM |
| O=C(c1c(Cl)cc(Cl)cc1Cl)N1CCOC(c2ccccc2)C1 (stereo not shown) | HA | – | A/Puerto Rico/8/1934 | – | IC50 | 1 µM |
| CC(C)C[C@@H]1NC(=O)CN(C)C(=O)[C@H](Cc2c[nH]c3ccccc23)NC(=O)[C@H](CCC(=O)O)NC(=O)[C@H](C)N(C)C(=O)[C@H](Cc2ccccc2)NC(=O)CSC[C@@H](C(N)=O)NC(=O)[C@H](CCCCN)NC(=O)[C@H](C(C)C)NC(=O)[C@H](Cc2ccc(O)cc2)NC(=O)[C@H](Cc2ccc(O)cc2)NC(=O)[C@H](C(C)C)NC(=O)[C@H](Cc2ccccc2)N(C)C(=O)[C@H](CCCNC(=N)N)NC1=O | ARID1B | binding, TR-FRET competition | – | 1% DMSO | IC50 | > 1 µM |
| CC1=C[C@H]2c3c(O)cc(CCc4ccccc4)cc3OC(C)(C)[C@H]2CC1 | Fatty-acid amide hydrolase 1 (FAAH, Sus scrofa, UniProt Q9TUI8) | inhibitor | – | – | IC50 | 36.3 ± 2.7 µM |
| CC(C)C[C@@H]1NC(=O)CN(C)C(=O)[C@H](Cc2c[nH]c3ccccc23)NC(=O)[C@H](CCC(=O)O)NC(=O)[C@H](Cc2ccccc2)N(C)C(=O)[C@H](Cc2ccccc2)NC(=O)CSC[C@@H](C(N)=O)NC(=O)[C@H](CCCCN)NC(=O)[C@H](C)NC(=O)[C@H](Cc2ccc(O)cc2)NC(=O)[C@H](Cc2ccc(O)cc2)NC(=O)[C@H](C(C)C)NC(=O)[C@H](Cc2ccccc2)N(C)C(=O)[C@H](CCCNC(=N)N)NC1=O | ARID1B | binding, TR-FRET competition | – | 1% DMSO | IC50 | 0.02 µM |
| Cc1ccc(N(C)C2(C)CN(C)C2)cc1C(=O)N[C@H](C)c1cc(-c2cnn(C)c2)nc2ccccc12 | Vero E6 | – | – | 31.25 µM | viability | 96.9% and 104% and 103% |
| O=C(CCc1c(C(=O)Nc2cccc(F)c2)[nH]c2ccc(Cl)cc12)Nc1cccc(F)c1 | gyrB with GyrA | – | – | – | IC50 | 22.8 µM |
| CC(C)C[C@@H]1NC(=O)CN(C)C(=O)[C@H](Cc2c[nH]c3ccccc23)NC(=O)[C@H](CCC(=O)O)NC(=O)[C@H](Cc2ccccc2)N(C)C(=O)[C@H](Cc2ccccc2)NC(=O)CSC[C@@H](C(N)=O)NC(=O)[C@H](C)NC(=O)[C@H](C(C)C)NC(=O)[C@H](Cc2ccc(O)cc2)NC(=O)[C@H](Cc2ccc(O)cc2)NC(=O)[C@H](C(C)C)NC(=O)[C@H](Cc2ccccc2)N(C)C(=O)[C@H](CCCNC(=N)N)NC1=O | ARID1B | binding, TR-FRET competition | – | 1% DMSO | IC50 | 0.01 µM |
| CC(C)c1nc2cc(O)ccc2c(=O)n1-c1ccc(C#N)cc1 | Transient receptor potential cation channel subfamily V member 1 (TRPV1, Homo sapiens, UniProt Q8NER1, T550L) | ion current, antagonist, whole-cell patch clamp | – | mutant T550L, +80 mV, together with: pH 5 stimulus | IC50 | 0.6 µM |
| Cc1ccc(OCCN(C)C)cc1C(=O)N[C@H](C)c1cc(-c2cccs2)nc2ccccc12 | Vero E6 | – | – | 125 µM | viability | 5.96% and 6.73% |
| CC(C)CC(C(=O)N1CC2(CC1C#N)C(=O)Nc1ccccc12)N(C)C(=O)c1cc2c(F)cc(F)c(F)c2[nH]1 (stereo not shown) | Caspase-7 (CASP7, Homo sapiens, UniProt P55210) | enzyme activity, inhibitor | – | – | IC50 | 4.69 µM and 4.7 µM |
| Cc1ccc(NC(=O)CCc2c(C(=O)Nc3ccc(C)cc3)[nH]c3ccc(Cl)cc23)cc1 | gyrB with GyrA | – | – | – | IC50 | 122 µM |
| O=C(c1ccc(Cl)cc1Cl)N1CCO[C@@H](c2ccccc2)C1 | HA | – | A/Puerto Rico/8/1934 | – | IC50 | 1.9 µM |
| O=C(CCc1c(C(=O)Nc2cccc(Cl)c2)[nH]c2ccc(Cl)cc12)Nc1cccc(Cl)c1 | gyrB with GyrA | – | – | – | IC50 | 138 µM |
| CC(C)C[C@@H]1NC(=O)CN(C)C(=O)[C@H](Cc2c[nH]c3ccccc23)NC(=O)[C@H](CCC(=O)O)NC(=O)[C@H](Cc2ccccc2)N(C)C(=O)[C@H](C)NC(=O)CSC[C@@H](C(N)=O)NC(=O)[C@H](CCCCN)NC(=O)[C@H](C(C)C)NC(=O)[C@H](Cc2ccc(O)cc2)NC(=O)[C@H](Cc2ccc(O)cc2)NC(=O)[C@H](C(C)C)NC(=O)[C@H](Cc2ccccc2)N(C)C(=O)[C@H](CCCNC(=N)N)NC1=O | ARID1B | binding, TR-FRET competition | – | 1% DMSO | IC50 | > 1 µM |
| O=C(CCc1c(C(=O)Nc2ccc(I)cc2)[nH]c2ccc(Cl)cc12)Nc1ccc(I)cc1 | gyrB with GyrA | – | – | – | IC50 | 201 µM |
| O=C1NC2(CC2)COc2ncc(F)cc2[C@H]2COCCN2c2ccn3ncc1c3n2 | – | – | Sprague-Dawley rat, male, adrenals | oral, 10 mg/kg/day, 4 weeks dosing, end of recovery | organ-to-body weight ratio | 0.012 ± 0.002% |
